Measurements from different studies.
Protocols differ between the studies behind these lines. Numbers after ± are the reported error.

Structure (SMILES) | assay | system | setting | how to read | endpoint | value
CC(C)[C@@H]1NC(=O)CNC(=O)[C@H](CC(N)=O)NC(=O)[C@H](CCCNC(=N)N)NC(=O)[C@H](Cc2ccc(O)cc2)NC(=O)[C@H](C(C)C)NC(=O)[C@@H](NC(=O)[C@@H](NC(=O)[C@H](CC(N)=O)NC(=O)[C@H](Cc2c[nH]c3ccccc23)NC(=O)[C@H](C)NC(=O)[C@H](Cc2ccccc2)NC(=O)CN)C(C)C)CSSC[C@@H](C(=O)N[C@@H](Cc2cnc[nH]2)C(=O)N[C@@H](CCCNC(=N)N)C(=O)N[C@@H](CCCNC(=N)N)C(=O)N[C@@H](C)C(=O)N[C@@H](CC(N)=O)C(N)=O)NC(=O)[C@H](C(C)C)NC(=O)[C@H](CCCNC(=N)N)NC1=O | – | ICR mice, blood | intraperitoneal, 10 mg/kg daily for 3 days, day 5 | – | haemoglobin | 121 ± 1.44 g/L
O[C@H]1CCCN[C@@H]1CCCn1cnc2c(Cl)c(Cl)ccc21 | – | healthy humans, plasma | oral, 150 mg single dose | – | AUC(0-12) | 679 ng·h/mL
CN1CC[C@@H](c2c(O)cc(O)c3c(=O)cc(-c4ccc(C(F)(F)F)cc4Cl)oc23)[C@@H]1CO | measured: respiratory failure | B-cell malignancies | oral, 200 mg, grade 3 to 4, intermittent dosing | – | patients with adverse event | 0%
CCN1CCN(Cc2ccc(Nc3ncc(F)c(-c4cc(F)c5nc6n(c5c4)[C@H](C)CCC6)n3)nc2)CC1 | Phase Ia and Ib | patients with solid tumours | dose not given, all grades | – | hypokalaemia incidence | 47.1%
CC[C@H](C)[C@@H]1NC(=O)[C@@H]2CSSC[C@H](NC(=O)[C@H](CCCNC(=N)N)NC(=O)[C@@H]3CSSC[C@H](NC1=O)C(=O)N[C@@H]([C@@H](C)O)C(=O)N[C@@H](CCCNC(=N)N)C(=O)NCC(=O)N[C@@H](Cc1ccccc1)C(=O)N3)C(=O)N[C@@H](CC(C)C)C(=O)N[C@H]1CSSC[C@H](NC(=O)[C@H](C(C)C)NC(=O)CNC(=O)[C@H](CCCNC(=N)N)NC(=O)[C@H](CCCNC(=N)N)NC1=O)C(=O)N[C@@H](CCCNC(=N)N)C(=O)N2 | – | Sprague-Dawley rats, female, lung | 20 mg/kg, perivascular and peribronchiolar | direction not given | eosinophilic infiltration score | 1 to 2
CCc1ccc(CC/C=C/c2ccc3c(c2)C(=O)CC3)cc1 | – | Sprague-Dawley rat, male | oral, 120 mg/kg/day, 14 days | – | Calcium | 2.42 mM
C[C@@H](NC(=O)N1C(=O)[C@H](Cc2ccnc(N)c2)[C@H]1C(=O)O)C1CCCCC1 | – | healthy adult Chinese volunteers | continuous intravenous infusion, 0.3 mg/kg/h, 5-day infusion, CTCAE 5.0 grading | – | incidence of injection site erythema swelling | 0%
C[C@@H]1OC(=O)NN=C1c1ccc(-c2ccc(F)cc2)c(C(F)(F)F)c1 | phase I trial, measured: AST increased worst grade 1 | human patients | 20 mg loading then 1 mg daily | – | patients with adverse event | 50%
CCN1[C@@H](C(=O)NC23CCC(C(=O)O)(CC2)CC3)[C@H](c2cccc(Cl)c2F)[C@]2(C(=O)Nc3cc(Cl)ccc32)C12CCCCC2 | – | patients with advanced solid tumours | oral, 200 mg | – | AST elevation incidence | 0%
O=S(=O)(Nc1ccccc1)c1ccc(NC(=S)Nc2ccccc2)cc1 | measured: Ca | male mouse, blood | oral, 5 mg/kg daily, 14 days | – | blood chemistry level | 10.1 mg/dL
Cn1c(-c2ccc(C(N)=O)cc2F)nnc1C(C)(C)Oc1c(F)cc(Cl)cc1F | – | human | oral, 60 mg, single ascending dose | – | medical device site reaction TEAE | 33.3%
O=C(Nc1ccccc1)C1CCN(C(=O)Oc2cccnc2)CC1 | psychotropic effects VAS | healthy women | 60 mg | relative to: pre-dose baseline, direction not given | change in High score | 6.5
CO[C@H]1C[C@@H]2CC[C@@H](C)[C@@](O)(O2)C(=O)C(=O)N2CCCC[C@H]2C(=O)O[C@H]([C@H](C)C[C@@H]2CC[C@@H](OC(=O)NCCOCCOCCOCCOCCOCCOCCOCCOCCC(=O)N3CCc4cc(Cn5nc(-c6ccc7oc(N)nc7c6)c6c(N)ncnc65)ccc4C3)[C@H](OC)C2)C[C@@H](O)[C@H](C)/C=C(\C)[C@@H](O)[C@@H](OC)C(=O)[C@H](C)C[C@H](C)/C=C/C=C/C=C/1C | phase 1 dose escalation, measured: vomiting | advanced solid tumour patients | intravenous, 8 mg weekly, any grade | – | TRAE incidence | 25%
COc1ccc2nc3cc(Cl)ccc3c(Nc3cc(CN4CCCC4)c(O)c(CN4CCCC4)c3)c2n1 | – | mouse, blood | intraperitoneal, 57 mg/kg | – | blood pH | 7.59
O=C1Nc2cc3[nH]nc(-c4ccncc4)c3cc2CN1Cc1ccccc1 | CTCAE v4.03 | advanced solid tumour patients | intravenous, 3.6 mg/kg, schedules 1/2 | – | patients with diarrhoea | 33%
COc1ncnn2ccc(-c3cnc4nc(C)n(Cc5nnc([C@@H](C)F)o5)c4c3)c12 | phase 1 trial | human patients | oral, dose not given, CTCAE grade 4 | – | patients with decreased WBC count | 7.1%
COc1cc2c(Oc3ccc4[nH]c(C)cc4c3F)ccnc2cc1OCC1(N)CC1 | – | paediatric recurrent refractory sarcoma | concentration not given, whole group | – | grade 3 sinus tachycardia | 0%
COC[C@@H](CC(C)C)NC(=O)c1ccc(C)c(C)c1 | – | Hsd:ICR (CD-1) mouse, female, bone marrow | oral, 1352 mg/kg, 48 h | – | PCE to total erythrocyte ratio | 0.513
Cc1cccc(Cn2nc(C3CC3)c3c(NC(=O)c4cnc5cc(OCCN6CCN(C)CC6)ccn45)cccc32)n1 | CTCAE v4.03, measured: AST increased | PD-1/PD-L1 inhibitor-refractory patients | oral, dose not given, with: pembrolizumab IV every 3 weeks | – | all-cause adverse events | 42.1%
C[C@]1(CO)Cc2ncn(-c3ccc(C#N)c(Cl)c3)c2C(=O)O1 | – | human, plasma | 3 mg, first dose fasted | – | AUC(0-inf) | 0.716 µM·h
Cc1ccc(F)c2cc(C(=O)N[C@@H]3CCC[C@H](N4CC[C@H](N(C)S(C)(=O)=O)C4)C3)[nH]c12 | – | CD1 mouse, plasma | oral, 30 mg/kg, 24 h | – | plasma concentration | 0.719 ng/mL
CC(C)(O)c1cc(Nc2cc(Oc3cn(C4CC4)nc3C3CCOCC3)ccn2)ccn1 | Nausea | patients with advanced cancer, Japanese cohort | oral, dose not given, grade ≥3 | – | treatment-related adverse events | 0%
N=C(N)NCCC[C@@H](NC(=O)[C@@H](N)Cc1ccccc1)C(=O)N[C@@H](Cc1ccccc1)C(=O)N[C@@H](CCCCN)C(N)=O | LC-MS | human | 5 mg, 23.83 h | – | mean fraction excreted in urine | 2.21%
C[C@@H]1NC(=O)[C@H](CCCCNC(=O)CO/N=C/C(=O)NCCCC[C@@H]2NC(=O)[C@@H](Cc3ccccc3)NC(=O)[C@H](CC(=O)O)NC(=O)CNC(=O)[C@H](CCCNC(=N)N)NC2=O)NC(=O)CNC(=O)[C@@H]2CCCN2C(=O)[C@H](CCCCNC(=O)CO/N=C/C(=O)NCCCC[C@@H]2NC(=O)[C@@H](Cc3ccccc3)NC(=O)[C@H](CC(=O)O)NC(=O)CNC(=O)[C@H](CCCNC(=N)N)NC2=O)NC(=O)[C@H](CCCCNC(=O)CCNC(=O)CCNC(=O)CCNC(=O)[C@H](CCCCN)NC(=O)[C@H](Cc2ccccc2)NC(=O)CNC(=O)CN2CCCNCCNCCCNCC2)NC(=O)[C@H](CCCCNC(=O)CO/N=C/C(=O)NCCCC[C@@H]2NC(=O)[C@@H](Cc3ccccc3)NC(=O)[C@H](CC(=O)O)NC(=O)CNC(=O)[C@H](CCCNC(=N)N)NC2=O)NC(=O)CNC(=O)[C@@H]2CCCN2C(=O)[C@H](CCCCNC(=O)CO/N=C/C(=O)NCCCC[C@@H]2NC(=O)[C@@H](Cc3ccccc3)NC(=O)[C@H](CC(=O)O)NC(=O)CNC(=O)[C@H](CCCNC(=N)N)NC2=O)NC1=O [copper-64 labelled] | biodistribution after PET | mouse, U-87 MG tumour xenograft, liver | intravenous, 24 h | – | tissue uptake | 29.2 ± 1.64 %ID/g
C[C@]1(O)C[C@@](N)(c2ccc(-c3nc4n(c3-c3ccccc3)COc3ccncc3-4)cc2)C1 | – | human, advanced or metastatic solid tumours | 28 mg intermittent, phase I dose escalation | – | patients with Diarrhea TEAE | 33.3%

For quick reference, copied from above:
Structure (SMILES) | assay | system | setting | how to read | endpoint | value
C[C@@H]1OC(=O)NN=C1c1ccc(-c2ccc(F)cc2)c(C(F)(F)F)c1 | phase I trial, measured: AST increased worst grade 1 | human patients | 20 mg loading then 1 mg daily | – | patients with adverse event | 50%
CCN1[C@@H](C(=O)NC23CCC(C(=O)O)(CC2)CC3)[C@H](c2cccc(Cl)c2F)[C@]2(C(=O)Nc3cc(Cl)ccc32)C12CCCCC2 | – | patients with advanced solid tumours | oral, 200 mg | – | AST elevation incidence | 0%
O=S(=O)(Nc1ccccc1)c1ccc(NC(=S)Nc2ccccc2)cc1 | measured: Ca | male mouse, blood | oral, 5 mg/kg daily, 14 days | – | blood chemistry level | 10.1 mg/dL
